Results of several laboratories.
Technique: steady-state kinetics
B1: enzyme (Brachypodium distachyon, UniProt I1IPY7); chain MEQGKAALGWAARDASGHLSPYNFSRRVQKDDDVTIKVLFCGICHTDLHIIKNEWGNALYPIVPGHEVVGVVTDVGPGVKNFKAGETVGVGYFLDSCRTCDSCSKGHENYCPTLVLTSNGVDYDGATTQGGFSDVVVVNQDYVVRVPDTLPPDGAAPLLCAGVTVYSPMMQYGLNAPGKHLGVVGLGGLGHMAVKFGKAFGMKVTVISSSLRKREEALDRLGADDFLVSSDAEQMKAAAGAMDGIIDTVSAGHPIVPLLELLRPMGQMVVCGAPSEPLQLPAYAVITGGKRIAGNGVGSVRDCQAMLDFAGEHGITADVEVVKMDYVNTAVERLERNDVRYRFVIDVAGSLQQGGAA
B2: patA (Escherichia coli, UniProt P42588); chain MNRLPSSASALACSAHALNLIEKRTLDHEEMKALNREVIEYFKEHVNPGFLEYRKSVTAGGDYGAVEWQAGSLNTLVDTQGQEFIDCLGGFGIFNVGHRNPVVVSAVQNQLAKQPLHSQELLDPLRAMLAKTLAALTPGKLKYSFFCNSGTESVEAALKLAKAYQSPRGKFTFIATSGAFHGKSLGALSATAKSTFRKPFMPLLPGFRHVPFGNIEAMRTALNECKKTGDDVAAVILEPIQGEGGVILPPPGYLTAVRKLCDEFGALMILDEVQTGMGRTGKMFACEHENVQPDILCLAKALGGGVMPIGATIATEEVFSVLFDNPFLHTTTFGGNPLACAAALATINVLLEQNLPAQAEQKGDMLLDGFRQLAREYPDLVQEARGKGMLMAIEFVDNEIGYNFASEMFRQRVLVAGTLNNAKTIRIEPPLTLTIEQCELVIKAARKALAAMRVSVEEA
B3: SUOX P184A (Homo sapiens, UniProt P51687); chain ESTHIYTKEEVSSHTSPETGIWVTLGSEVFDVTEFVDLHPGGPSKLMLAAGGPLEPFWALYAVHNQSHVRELLAQYKIGELNPEDKVAPTVETSDPYADDPVRHAALKVNSQRPFNAEPPPELLTENYITPNPIFFTRNHLPVPNLDPDTYRLHVVGAPGGQSLSLSLDDLHNFPRYEITVTLQCAGNRRSEMTQVKEVKGLEWRTGAISTARWAGARLCDVLAQAGHQLCETEAHVCFEGLDSDPTGTAYGASIPLARAMDPEAEVLLAYEMNGQPLPRDHGFPVRVVVPGVVGARHVKWLGRVSVQPEESYSHWQRRDYKGFSPSVDWETVDFDSAPSIQELPVQSAITEPRDGETVESGEVTIKGYAWSGGGRAVIRVDVSLDGGLTWQVAKLDGEEQRPRKAWAWRLWQLKAPVPAGQKELNIVCKAVDDGYNVQPDTVAPIWNLRGVLSNAWHRVHVYVSP
B4: LYPLA2 (Homo sapiens, UniProt O95372); chain MCGNTMSVPLLTDAATVSGAERETAAVIFLHGLGDTGHSWADALSTIRLPHVKYICPHAPRIPVTLNMKMVMPSWFDLMGLSPDAPEDEAGIKKAAENIKALIEHEMKNGIPANRIVLGGFSQGGALSLYTALTCPHPLAGIVALSCWLPLHRAFPQAANGSAKDLAILQCHGELDPMVPVRFGALTAEKLRSVVTPARVQFKTYPGVMHSSCPQEMAAVKEFLEKLLPPV
B5: asnB (Escherichia coli, UniProt P22106); chain CSIFGVFDIKTDAVELRKKALELSRLMRHRGPDWSGIYASDNAILAHERLSIVDVNAGAQPLYNQQKTHVLAVNGEIYNHQALRAEYGDRYQFQTGSDCEVILALYQEKGPEFLDDLQGMFAFALYDSEKDAYLIGRDHLGIIPLYMGYDEHGQLYVASEMKALVPVCRTIKEFPAGSYLWSQDGEIRSYYHRDWFDYDAVKDNVTDKNELRQALEDSVKSHLMSDVPYGVLLSGGLDSSIISAITKKYAARRVEDQERSEAWWPQLHSFAVGLPGSPDLKAAQEVANHLGTVHHEIHFTVQEGLDAIRDVIYHIETYDVTTIRASTPMYLMSRKIKAMGIKMVLSGEGSDEVFGGYLYFHKAPNAKELHEETVRKLLALHMYDCARANKAMSAWGVEARVPFLDKKFLDVAMRINPQDKMCGNGKMEKHILRECFEAYLPASVAWRQKEQFSDGVGYSWIDTLKEVAAQQVSDQQLETARFRFPYNTPTSKEAYLYREIFEELFPLPSAAECVPGGPSVACSSAKAIEWDEAFKKMDDPSGRAVGVHQSAYK
B6: UGT1A9 (Homo sapiens, UniProt O60656); chain GKLLVVPMDGSHWFTMRSVVEKLILRGHEVVVVMPEVSWQLGRSLNCTVKTYSTSYTLEDLDREFKAFAHAQWKAQVRSIYSLLMGSYNDIFDLFFSNCRSLFKDKKLVEYLKESSFDAVFLDPFDNCGLIVAKYFSLPSVVFARGILCHYLEEGAQCPAPLSYVPRILLGFSDAMTFKERVRNHIMHLEEHLLCHRFFKNALEIASEILQTPVTEYDLYSHTSIWLLRTDFVLDYPKPVMPNMIFIGGINCHQGKPLPMEFEAYINASGEHGIVVFSLGSMVSEIPEKKAMAIADALGKIPQTVLWRYTGTRPSNLANNTILVKWLPQNDLLGHPMTRAFITHAGSHGVYESICNGVPMVMMPLFGDQMDNAKRMETKGAGVTLNVLEMTSEDLENALKAVINDKSYKENIMRLSSLHKDRPVEPLDLAVFWVEFVMRHKGAPHLRPAAHDLTWYQYHSLDVIGFLLAVVLTVAFITFKCCAYGYRKCLGKKGRVKKAHKSKTH
B7: iodotyrosine deiodinase (Haliscomenobacter hydrossis, UniProt F4KU78); chain MKQKPAFIPYAGAQFEPEEMLSKSAEYYQFMDHRRTVREFSNRAIPLEVIENIVMTASTAPSGAHKQPWTFVVVSDPQIKAKIRQAAEKEEFESYNGRMSNEWLEDLQPFGTDWHKPFLEIAPYLIVVFRKAYDVLPDGTQRKNYYVQESVGIACGFLLAAIHQAGLVALTHTPSPMNFLQKILQRPENERPFLLVPVGYPAEGAMVPDLQRKDKAAVMVVY
Sequence of UniProt Q01740 (whole entry, looked up): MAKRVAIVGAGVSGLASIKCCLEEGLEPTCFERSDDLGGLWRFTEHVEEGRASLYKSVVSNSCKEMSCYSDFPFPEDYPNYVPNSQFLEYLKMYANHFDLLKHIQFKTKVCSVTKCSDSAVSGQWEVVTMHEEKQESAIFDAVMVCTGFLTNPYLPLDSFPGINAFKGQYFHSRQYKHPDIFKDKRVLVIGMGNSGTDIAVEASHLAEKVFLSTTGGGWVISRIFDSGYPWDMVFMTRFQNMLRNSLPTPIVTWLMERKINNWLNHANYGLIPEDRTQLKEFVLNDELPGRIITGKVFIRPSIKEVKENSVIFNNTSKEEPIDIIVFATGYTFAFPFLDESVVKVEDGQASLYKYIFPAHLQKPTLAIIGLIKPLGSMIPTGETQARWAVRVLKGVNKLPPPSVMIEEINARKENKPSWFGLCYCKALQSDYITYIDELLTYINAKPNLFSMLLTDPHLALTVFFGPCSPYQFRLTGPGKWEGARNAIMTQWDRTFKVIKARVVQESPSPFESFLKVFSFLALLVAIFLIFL
Sequence of UniProt P42982 (whole entry, looked up): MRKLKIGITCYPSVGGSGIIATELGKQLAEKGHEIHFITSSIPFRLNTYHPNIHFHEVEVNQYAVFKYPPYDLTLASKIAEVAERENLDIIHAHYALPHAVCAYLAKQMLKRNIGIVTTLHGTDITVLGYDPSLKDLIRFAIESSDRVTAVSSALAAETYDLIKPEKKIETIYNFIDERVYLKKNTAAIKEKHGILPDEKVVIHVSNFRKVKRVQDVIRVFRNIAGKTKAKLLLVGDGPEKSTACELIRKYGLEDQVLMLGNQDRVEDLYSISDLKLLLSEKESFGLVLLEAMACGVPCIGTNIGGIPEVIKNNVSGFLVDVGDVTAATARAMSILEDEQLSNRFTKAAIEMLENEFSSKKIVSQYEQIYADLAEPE
Sequence of UniProt Q48662 (whole entry, looked up): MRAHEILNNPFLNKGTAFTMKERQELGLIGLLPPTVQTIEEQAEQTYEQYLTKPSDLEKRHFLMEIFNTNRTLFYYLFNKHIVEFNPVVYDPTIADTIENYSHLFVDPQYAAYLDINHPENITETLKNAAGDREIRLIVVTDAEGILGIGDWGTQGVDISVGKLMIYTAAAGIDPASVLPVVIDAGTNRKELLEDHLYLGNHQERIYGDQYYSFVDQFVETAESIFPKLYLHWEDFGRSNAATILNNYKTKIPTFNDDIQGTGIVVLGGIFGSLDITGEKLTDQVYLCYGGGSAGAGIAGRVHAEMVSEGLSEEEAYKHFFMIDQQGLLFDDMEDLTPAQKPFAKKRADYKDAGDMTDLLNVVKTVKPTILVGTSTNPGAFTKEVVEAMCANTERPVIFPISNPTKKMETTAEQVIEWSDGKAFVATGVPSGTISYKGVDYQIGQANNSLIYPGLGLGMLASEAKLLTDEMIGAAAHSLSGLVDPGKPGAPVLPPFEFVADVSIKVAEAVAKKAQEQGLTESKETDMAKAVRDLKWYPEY
Sequence of UniProt Q11203 (whole entry, looked up): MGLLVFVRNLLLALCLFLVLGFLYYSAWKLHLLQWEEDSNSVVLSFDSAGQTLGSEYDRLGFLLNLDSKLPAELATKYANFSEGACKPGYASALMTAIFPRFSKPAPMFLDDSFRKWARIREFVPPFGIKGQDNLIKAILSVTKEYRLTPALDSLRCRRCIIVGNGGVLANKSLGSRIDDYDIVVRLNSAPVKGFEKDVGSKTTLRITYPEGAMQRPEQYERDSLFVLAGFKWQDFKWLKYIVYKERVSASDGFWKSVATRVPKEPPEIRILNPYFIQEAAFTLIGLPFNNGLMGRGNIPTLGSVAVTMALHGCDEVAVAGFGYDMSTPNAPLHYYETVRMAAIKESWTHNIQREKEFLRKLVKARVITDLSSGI

| Substance | substrate | conditions | Km [µM] |
| --- | --- | --- | --- |
| enzyme (Lactococcus lactis, UniProt Q48662) | O=C(O)C[C@H](O)C(=O)O | pH 7, 30 °C, apparent | 1400 |
| alanine aminopeptidase (Neisseria meningitidis, UniProt Q9JYV4) | NC(=O)Cc1cc(=O)oc2cc(NC(=O)[C@@H](N)Cc3ccc4ccccc4c3)ccc12 | pH 7.5, 37 °C | 50.7 |
| B1 (enzyme) | NC(=O)C1=CN([C@@H]2O[C@H](COP(=O)(O)OP(=O)(O)OC[C@H]3O[C@@H](n4cnc5c(N)ncnc54)[C@H](OP(=O)(O)O)[C@@H]3O)[C@@H](O)[C@H]2O)C=CC1 | pH 5.35, 23 °C, cofactor varied | 1.3 |
| B2 (patA) | O=C(O)CCC(=O)C(=O)O | pH 9, 37 °C | 19000 |
| FMO1 (Homo sapiens, UniProt Q01740) | CN1CCC[C@H]1c1cccnc1 | pH 8.5, 37 °C, not purified | 1200 |
| ST3GAL3 (Homo sapiens, UniProt Q11203) | CC(=O)N[C@H]1[C@H](O[C@H]2[C@@H](O)[C@@H](CO)O[C@@H](Oc3ccc([N+](=O)[O-])cc3)[C@@H]2O)O[C@H](CO)[C@@H](O[C@@H]2O[C@H](CO)[C@H](O)[C@H](O)[C@H]2O)[C@@H]1O | pH 6, together with: CMP-Neu5Ac | 830 |
| BshA (Bacillus subtilis, UniProt P42982) | CC(=O)N[C@H]1[C@@H](OP(=O)(O)OP(=O)(O)OC[C@H]2O[C@@H](n3ccc(=O)[nH]c3=O)[C@H](O)[C@@H]2O)O[C@H](CO)[C@@H](O)[C@@H]1O | pH 7.5, 21 °C, together with: malate 0–25 mM | 160 |
| B3 (SUOX P184A) | O=S(O)O | pH 8, 25 °C, together with: oxidized cyt c 400 µM | 6 |
| B4 (LYPLA2) | CN(C)c1ccc(/N=N/c2ccc(C(=O)NCCCn3cc(CCCCCCCCCCCCCCCC(=O)OC[C@H](NC(=O)c4cc5ccc(O)cc5oc4=O)C(=O)N4CCOCC4)nn3)cc2)cc1 | pH 7.4, 37 °C | 37.5 |
| B5 (asnB) | N[C@@H](CC(=O)O)C(=O)O | pH 8, 37 °C, apparent, together with: L-glutamine 20 mM | 580 |
| B6 (UGT1A9) | CCN(CC)C(=O)/C(C#N)=C/c1cc(O)c(O)c([N+](=O)[O-])c1 | pH 7.4, 37 °C | 8.64 |
| B7 (iodotyrosine deiodinase) | Cc1cc(C[C@H](N)C(=O)O)cc(I)c1O | pH 7.4, 25 °C | 16 |

For quick reference, copied from above:
| Substance | substrate | conditions | Km [µM] |
| --- | --- | --- | --- |
| B1 (enzyme) | NC(=O)C1=CN([C@@H]2O[C@H](COP(=O)(O)OP(=O)(O)OC[C@H]3O[C@@H](n4cnc5c(N)ncnc54)[C@H](OP(=O)(O)O)[C@@H]3O)[C@@H](O)[C@H]2O)C=CC1 | pH 5.35, 23 °C, cofactor varied | 1.3 |
| B2 (patA) | O=C(O)CCC(=O)C(=O)O | pH 9, 37 °C | 19000 |
